Assay results collected from several papers.
Every numbered part comes from another study and shows a few of its results, in no order.
UniProt Q02763, sequence (whole entry, looked up): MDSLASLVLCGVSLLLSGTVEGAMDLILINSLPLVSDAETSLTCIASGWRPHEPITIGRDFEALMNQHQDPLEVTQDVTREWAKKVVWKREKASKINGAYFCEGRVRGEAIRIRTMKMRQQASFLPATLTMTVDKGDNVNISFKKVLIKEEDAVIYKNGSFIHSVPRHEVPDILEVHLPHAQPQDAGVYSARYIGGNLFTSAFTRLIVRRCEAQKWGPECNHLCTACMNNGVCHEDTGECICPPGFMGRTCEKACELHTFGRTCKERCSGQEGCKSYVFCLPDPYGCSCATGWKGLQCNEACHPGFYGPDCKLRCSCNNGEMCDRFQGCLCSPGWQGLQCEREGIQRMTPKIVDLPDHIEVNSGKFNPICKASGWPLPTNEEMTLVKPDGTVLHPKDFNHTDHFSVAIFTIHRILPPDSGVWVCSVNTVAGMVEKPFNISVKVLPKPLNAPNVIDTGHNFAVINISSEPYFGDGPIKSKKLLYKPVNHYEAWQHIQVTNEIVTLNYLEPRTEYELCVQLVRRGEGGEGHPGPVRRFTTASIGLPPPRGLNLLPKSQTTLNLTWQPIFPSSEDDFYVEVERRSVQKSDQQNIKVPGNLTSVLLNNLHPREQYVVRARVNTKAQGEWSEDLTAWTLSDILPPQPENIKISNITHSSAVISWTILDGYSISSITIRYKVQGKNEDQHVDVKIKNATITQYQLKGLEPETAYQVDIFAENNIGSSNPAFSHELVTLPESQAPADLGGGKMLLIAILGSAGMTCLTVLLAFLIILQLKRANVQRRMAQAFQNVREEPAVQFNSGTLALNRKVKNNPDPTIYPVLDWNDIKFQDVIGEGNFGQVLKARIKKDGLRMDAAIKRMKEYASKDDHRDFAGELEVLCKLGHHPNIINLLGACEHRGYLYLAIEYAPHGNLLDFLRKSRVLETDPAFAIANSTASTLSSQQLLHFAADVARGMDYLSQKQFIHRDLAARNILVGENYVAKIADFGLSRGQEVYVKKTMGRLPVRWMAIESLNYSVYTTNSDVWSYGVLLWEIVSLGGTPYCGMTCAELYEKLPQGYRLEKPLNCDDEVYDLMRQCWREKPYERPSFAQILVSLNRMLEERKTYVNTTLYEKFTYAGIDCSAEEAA
UniProt Q15349, sequence (whole entry, looked up): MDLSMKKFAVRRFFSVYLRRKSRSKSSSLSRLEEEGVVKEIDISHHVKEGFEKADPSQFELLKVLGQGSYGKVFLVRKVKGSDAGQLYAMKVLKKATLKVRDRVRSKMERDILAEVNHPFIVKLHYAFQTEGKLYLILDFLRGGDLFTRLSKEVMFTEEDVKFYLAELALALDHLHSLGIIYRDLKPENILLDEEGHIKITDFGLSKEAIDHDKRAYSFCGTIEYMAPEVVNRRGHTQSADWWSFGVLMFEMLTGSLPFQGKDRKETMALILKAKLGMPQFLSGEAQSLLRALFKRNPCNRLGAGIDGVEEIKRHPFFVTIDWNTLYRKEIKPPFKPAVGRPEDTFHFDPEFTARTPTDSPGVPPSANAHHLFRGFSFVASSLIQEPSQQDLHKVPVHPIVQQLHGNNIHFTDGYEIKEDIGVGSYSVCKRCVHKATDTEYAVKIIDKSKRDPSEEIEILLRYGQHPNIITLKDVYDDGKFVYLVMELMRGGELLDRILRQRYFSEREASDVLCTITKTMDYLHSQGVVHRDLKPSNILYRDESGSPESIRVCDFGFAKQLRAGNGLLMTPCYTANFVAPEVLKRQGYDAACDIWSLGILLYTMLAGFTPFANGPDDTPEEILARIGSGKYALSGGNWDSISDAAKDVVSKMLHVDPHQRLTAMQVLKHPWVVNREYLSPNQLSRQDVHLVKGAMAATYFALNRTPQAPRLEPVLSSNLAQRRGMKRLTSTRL
UniProt P27361, sequence (whole entry, looked up): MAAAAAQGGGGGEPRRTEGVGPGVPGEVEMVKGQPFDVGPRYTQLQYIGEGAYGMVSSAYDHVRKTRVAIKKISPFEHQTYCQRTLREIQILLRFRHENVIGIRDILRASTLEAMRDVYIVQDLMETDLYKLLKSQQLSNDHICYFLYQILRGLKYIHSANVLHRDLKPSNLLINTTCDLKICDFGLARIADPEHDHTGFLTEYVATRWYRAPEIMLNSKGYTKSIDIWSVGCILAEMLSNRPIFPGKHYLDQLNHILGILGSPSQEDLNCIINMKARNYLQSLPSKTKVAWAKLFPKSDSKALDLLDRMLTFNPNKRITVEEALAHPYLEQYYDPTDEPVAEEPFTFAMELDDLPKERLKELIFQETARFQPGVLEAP
UniProt Q9HBY8, sequence (whole entry, looked up): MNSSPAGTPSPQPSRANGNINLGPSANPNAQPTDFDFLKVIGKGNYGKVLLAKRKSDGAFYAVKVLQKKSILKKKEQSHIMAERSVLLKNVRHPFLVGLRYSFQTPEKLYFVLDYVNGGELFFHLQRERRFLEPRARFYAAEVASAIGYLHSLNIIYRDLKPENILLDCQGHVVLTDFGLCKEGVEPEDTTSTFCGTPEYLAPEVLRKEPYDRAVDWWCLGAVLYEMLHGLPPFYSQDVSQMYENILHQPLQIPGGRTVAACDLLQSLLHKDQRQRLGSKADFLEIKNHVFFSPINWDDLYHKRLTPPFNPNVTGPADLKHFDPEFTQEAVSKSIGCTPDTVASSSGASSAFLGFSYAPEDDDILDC
UniProt Q9UQB9, sequence (whole entry, looked up): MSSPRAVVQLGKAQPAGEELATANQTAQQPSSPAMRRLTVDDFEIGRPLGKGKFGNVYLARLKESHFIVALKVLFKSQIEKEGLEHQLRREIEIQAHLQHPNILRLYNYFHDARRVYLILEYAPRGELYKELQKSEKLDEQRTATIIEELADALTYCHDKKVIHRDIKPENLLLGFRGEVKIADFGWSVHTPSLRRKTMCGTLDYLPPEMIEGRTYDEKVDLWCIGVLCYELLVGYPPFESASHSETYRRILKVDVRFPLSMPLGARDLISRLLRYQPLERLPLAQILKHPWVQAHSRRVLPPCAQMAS
UniProt Q04912, sequence (whole entry, looked up): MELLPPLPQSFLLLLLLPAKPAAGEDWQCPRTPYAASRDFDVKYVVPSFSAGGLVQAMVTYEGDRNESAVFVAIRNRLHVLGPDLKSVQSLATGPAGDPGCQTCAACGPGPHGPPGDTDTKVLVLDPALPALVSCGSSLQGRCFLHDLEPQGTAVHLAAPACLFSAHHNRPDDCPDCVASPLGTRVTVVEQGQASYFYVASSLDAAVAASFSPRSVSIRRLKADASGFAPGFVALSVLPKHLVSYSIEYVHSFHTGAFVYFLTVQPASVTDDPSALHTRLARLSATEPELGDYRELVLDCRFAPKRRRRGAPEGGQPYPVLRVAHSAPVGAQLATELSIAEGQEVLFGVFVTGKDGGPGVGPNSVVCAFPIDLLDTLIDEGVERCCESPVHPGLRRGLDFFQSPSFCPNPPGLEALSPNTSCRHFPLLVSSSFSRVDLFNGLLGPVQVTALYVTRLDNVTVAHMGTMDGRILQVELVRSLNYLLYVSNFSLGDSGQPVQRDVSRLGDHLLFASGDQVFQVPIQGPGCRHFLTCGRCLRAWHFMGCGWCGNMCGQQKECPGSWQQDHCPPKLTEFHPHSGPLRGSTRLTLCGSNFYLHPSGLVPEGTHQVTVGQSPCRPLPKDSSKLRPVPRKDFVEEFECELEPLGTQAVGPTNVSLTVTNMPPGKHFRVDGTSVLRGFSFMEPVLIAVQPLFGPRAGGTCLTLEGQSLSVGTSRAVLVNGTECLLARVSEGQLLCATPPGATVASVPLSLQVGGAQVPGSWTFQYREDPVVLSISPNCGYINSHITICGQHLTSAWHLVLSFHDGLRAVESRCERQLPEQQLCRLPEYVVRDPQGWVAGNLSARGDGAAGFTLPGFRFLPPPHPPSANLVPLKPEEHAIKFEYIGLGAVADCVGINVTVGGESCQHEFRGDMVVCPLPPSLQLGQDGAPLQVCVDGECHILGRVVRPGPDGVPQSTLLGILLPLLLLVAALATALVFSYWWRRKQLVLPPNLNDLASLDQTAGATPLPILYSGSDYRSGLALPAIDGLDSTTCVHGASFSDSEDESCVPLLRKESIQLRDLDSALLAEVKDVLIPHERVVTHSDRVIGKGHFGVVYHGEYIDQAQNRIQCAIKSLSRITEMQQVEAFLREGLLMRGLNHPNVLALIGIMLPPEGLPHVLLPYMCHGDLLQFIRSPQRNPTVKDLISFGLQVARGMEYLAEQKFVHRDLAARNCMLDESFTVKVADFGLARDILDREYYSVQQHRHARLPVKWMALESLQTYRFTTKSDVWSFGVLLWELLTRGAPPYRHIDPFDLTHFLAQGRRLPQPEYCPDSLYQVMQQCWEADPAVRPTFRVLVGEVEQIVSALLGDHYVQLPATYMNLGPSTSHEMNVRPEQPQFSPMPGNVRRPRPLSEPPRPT
UniProt P49137, sequence (whole entry, looked up): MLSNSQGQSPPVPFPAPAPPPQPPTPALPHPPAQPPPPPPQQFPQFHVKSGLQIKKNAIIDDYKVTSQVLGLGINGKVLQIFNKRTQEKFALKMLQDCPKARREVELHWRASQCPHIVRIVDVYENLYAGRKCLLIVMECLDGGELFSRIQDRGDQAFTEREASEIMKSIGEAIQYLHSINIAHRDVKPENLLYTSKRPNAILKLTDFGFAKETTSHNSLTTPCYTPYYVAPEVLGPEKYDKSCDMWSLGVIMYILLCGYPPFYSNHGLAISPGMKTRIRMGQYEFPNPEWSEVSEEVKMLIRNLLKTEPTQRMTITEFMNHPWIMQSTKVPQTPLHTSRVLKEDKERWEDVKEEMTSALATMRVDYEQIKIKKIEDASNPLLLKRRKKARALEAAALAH

Block 1
Target: Histone acetyltransferase KAT6A, both winged helices, GST fusion (KAT6A, Homo sapiens, UniProt Q92794, residues 1-181)
Technique: protein binding microarray
Form: double-stranded DNA, one strand shown
Medium: in vitro
Concentration: not given
Setting: 8-mer, flanks averaged, mean of 2 arrays, mostly near background
Baseline: not given
Reading: higher = stronger binding
Construct (chain): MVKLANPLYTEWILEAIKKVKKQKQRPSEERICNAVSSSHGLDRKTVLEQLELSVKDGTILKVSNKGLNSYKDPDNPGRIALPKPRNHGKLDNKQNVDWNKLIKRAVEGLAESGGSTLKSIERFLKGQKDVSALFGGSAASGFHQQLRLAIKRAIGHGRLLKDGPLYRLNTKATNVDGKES
| Sequence | E-score |
| --- | --- |
| ATGCATAA | -0.0958 |
| TGGTCAAA | -0.14 |
| ATCTCAAT | -0.0716 |
| GACACAGC | 0.014 |
| AGAGAAGG | -0.143 |
| GGTTTACA | 0.0338 |
| CGGTGATA | 0.108 |
| GCCCGCGA | 0.204 |

Block 2
Target: FOXO3, forkhead domain (mouse, UniProt Q9WVH4, residues 31-263)
UniProt Q9WVH4, sequence (31-263, looked up): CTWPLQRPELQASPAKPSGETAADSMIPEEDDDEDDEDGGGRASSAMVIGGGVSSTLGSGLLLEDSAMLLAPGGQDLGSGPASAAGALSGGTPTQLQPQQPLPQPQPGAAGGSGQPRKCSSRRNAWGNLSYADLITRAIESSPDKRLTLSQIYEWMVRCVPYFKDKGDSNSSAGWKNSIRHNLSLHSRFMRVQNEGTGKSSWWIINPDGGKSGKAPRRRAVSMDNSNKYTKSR
Technique: protein-binding microarray
Form: hairpin DNA
Medium: in vitro
Concentration: not given
Setting: whole hairpin DNA, median over replicate spots
Baseline: not given
Reading: higher = stronger binding
| Sequence | median fluorescence [a.u.] |
| --- | --- |
| GAGGCCCGGTAAACAACGCCTCCTGGCGTTGTTTACCGGGCCTCACACTC (5mC at 37) | 6120 |
| GAGGCCCGGTAAACAACGCCTCCTGGCGTTGTTTACCGGGCCTCACACTC (5mC at 7 37) | 5720 |
| GAGGCCATGTAAACCGCGCCTCCTGGCGCGGTTTACATGGCCTCACACTC (5mC at 15 29) | 4350 |
| GAGGCCATTTAAACAACGCCTCCTGGCGTTGTTTAAATGGCCTCACACTC | 3420 |
| GAGGCCATGCACGCAACGCCTCCTGGCGTTGCGTGCATGGCCTCACACTC | 4880 |
| GAGGCCAAGCAAACAACGCCTCCTGGCGTTGTTTGCTTGGCCTCACACTC | 5220 |
| GAGGCCATGCACACAACGCCTCCTGGCGTTGTGTGCATGGCCTCACACTC (5mC at 12) | 4570 |
| GAGGCCATGTAACGAACGCCTCCTGGCGTTCGTTACATGGCCTCACACTC | 4060 |

Block 3
SMILES: C[C@@H]1CN(c2cc(-c3n[nH]c4ccc(OC5(C)CC5)cc34)ncn2)C[C@H](C)O1
Effect on: cell-free assay
Technique: competition with immobilised ligand
Concentration: 0.1 µM
| target | remaining binding |
| --- | --- |
| Aurora kinase C (AURKC, Homo sapiens, UniProt Q9UQB9) | 100% |
| SGK2 (Homo sapiens, UniProt Q9HBY8) | 84% |
| GRK1 (Homo sapiens, UniProt Q15835) | 83% |

Block 4
SMILES: Cc1cccc(-c2[nH]c(C(C)(C)C)nc2-c2ccc3c(c2)OCO3)n1
Effect on: enzyme activity
Mode: inhibitor
Concentration: 0.5 µM
Baseline: control
| target | remaining activity |
| --- | --- |
| JAK3 (Homo sapiens, UniProt P52333) | 92.6% |
| GRK7 (Homo sapiens, UniProt Q8WTQ7) | 103% |
| RPS6KA2 (Homo sapiens, UniProt Q15349) | 96.4% |
| MAP3K5 (Homo sapiens, UniProt Q99683) | 103% |
| MAPK3 (Homo sapiens, UniProt P27361) | 111% |
| MAPKAPK2 (Homo sapiens, UniProt P49137) | 103% |
| TEK (Homo sapiens, UniProt Q02763) | 95.2% |
| ACVR1B (Homo sapiens, UniProt P36896) | 31% |
| MST1R (Homo sapiens, UniProt Q04912) | 101% |

Excerpt of the above (block 2):
| Sequence | median fluorescence [a.u.] |
| --- | --- |
| GAGGCCATGCACGCAACGCCTCCTGGCGTTGCGTGCATGGCCTCACACTC | 4880 |
| GAGGCCAAGCAAACAACGCCTCCTGGCGTTGTTTGCTTGGCCTCACACTC | 5220 |
| GAGGCCATGCACACAACGCCTCCTGGCGTTGTGTGCATGGCCTCACACTC (5mC at 12) | 4570 |
| GAGGCCATGTAACGAACGCCTCCTGGCGTTCGTTACATGGCCTCACACTC | 4060 |
